Experimental data from different studies.
Lines come from different studies, so protocols differ. ± gives the spread as reported. Values after ≈ are worked out from the molar mass of the structure shown.

Structure (SMILES)	test	test system	conditions	how to read	measurement	result
C[C@]12CC[C@@H]3c4ccc(O)cc4CC[C@H]3[C@@H]1C[C@@H](O)[C@@H]2O	GC-MS	breast cancer women on NSAI, serum	vaginal, 0.03 mg, 6 h, day 0		median serum concentration	0 ng/mL
COc1cc(/C=C/c2ccc(N)cc2)cc(OC)c1		rat, perirenal fat	oral, 40 mg/kg daily for three days, 24 h, total, pooled		concentration	690 ± 40 ng/g
[11CH3]c1ccccc1S[C@@H](c1ccccc1)[C@@H]1CNCCO1		1-octanol/phosphate buffer	pH 7.4		log P	2 to 2.47
COc1cccc(CN)c1O		male C57BL/6 mouse, heart	intraperitoneal, 200 mg/kg, single dose		half-life	30 min
CC(C)Cc1ccc(C(C)C(=O)O)cc1 (racemic)		pig, skin	0.01 g/cm^3, pH 7.4, 32 °C, donor 70% ethanol, 0.5 mm dermatomed		skin flux	13.6 µg/cm2/h
CN1CCN(CCC(=O)Nc2ccc3c(c2)Sc2cccc(-c4cc(=O)cc(N5CCOCC5)o4)c2S3)CC1		nude mice, SW-620 xenograft, tumour	dose not given		duration of sensitising tumour levels	≥ 4 h
CC(C)=CCc1c(O)c(CC=C(C)C)c2oc3c(O)cccc3c(=O)c2c1O		Balb/c nu/nu mice, HT-29 xenograft, tumour tissue	oral, 901 mg/kg xanthones in diet, 2 weeks after implantation		free tumour concentration	220 ± 10 ng/g
CC(C)=CCC[C@](C)(O[C@@H]1O[C@H](CO)[C@@H](O)[C@H](O)[C@H]1O)[C@H]1CC[C@]2(C)[C@@H]1[C@H](O)C[C@@H]1[C@@]3(C)CC[C@H](O[C@@H]4O[C@H](CO)[C@@H](O)[C@H](O)[C@H]4O)C(C)(C)[C@@H]3CC[C@]12C	LC-MS/MS	healthy female volunteers, serum	oral, 3 g fermented red ginseng		AUC(0-inf)	23.1 ± 16.7 ng·h/mL
CCOc1nc2cccc(C(=O)O)c2n1Cc1ccc(-c2ccccc2-c2nnn[nH]2)cc1	shake-flask	polysorbate 80	37 °C		thermodynamic solubility	5.04 ± 0.94 mg/g
CN[C@H](CC(C)C)C(=O)N[C@H]1C(=O)N[C@@H](CC(N)=O)C(=O)N[C@H]2C(=O)N[C@H]3C(=O)N[C@H](C(=O)N[C@H](C(=O)O)c4cc(O)cc(O)c4-c4cc3ccc4O)[C@H](O)c3ccc(c(Cl)c3)Oc3cc2cc(c3O[C@@H]2O[C@H](CO)[C@@H](O)[C@H](O)[C@H]2O[C@H]2C[C@](C)(N)[C@H](O)[C@H](C)O2)Oc2ccc(cc2Cl)[C@H]1O		pig, Danish Landrace, plasma	intravenous, 1000 mg over 100 min, 450 min dosing interval, with: 2.0 µg/mL MIC	reference: dosing interval	time above MIC	100%
COc1ccc([C@@H]2CC(=O)c3c(O)cc(O)cc3O2)cc1O	mass spectrometry	Caco-2	40 µM, 6 h		Papp A→B	7.28 ×10⁻⁶ cm/s
CCCCCOC(=O)Nc1nc(=O)n([C@@H]2O[C@H](C)[C@@H](O)[C@H]2O)cc1F		Caco-2	4 h		efflux ratio	> 2
CCCCC/C=C/C(=O)CCc1ccc(O)c(OC)c1		rat, small intestine site 4 contents	oral, dose not given, 4 h, no β-glucuronidase treatment	reference: ingested amount	recovery	0.46%
CCCCN(CCCC)CCC(O)c1cc2c(Cl)cc(Cl)cc2c2cc(C(F)(F)F)ccc12 (stereo not drawn)	shake-flask	PEG400	37 °C		thermodynamic solubility	5.73 ± 0.38 mg/g
CC1=CC(c2ccccc2)=NS(=O)(=O)N1	HPLC	PVC/DOS polymer film-water	neutral form		log P	1.04 ± 0.02
Cc1nc(-c2ccc(OCC(C)C)c(C#N)c2)sc1C(=O)O		pediatric patients, plasma	oral, 40 mg once daily, fed, PopPK post hoc, weight at least 40 kg		Vz/F at steady state	79.3 ± 22.8 L
CCCC[C@H](NC(C)=O)C(=O)N[C@H]1CCC(=O)NC[C@@H](C(=O)N[C@@H](Cc2c[nH]c3ccccc23)C(N)=O)NC(=O)[C@H](CCCNC(=N)N)NC(=O)[C@@H](Cc2ccccc2)NC(=O)[C@H](Cc2c[nH]cn2)NC1=O		healthy volunteers, both sexes, plasma	subcutaneous, 3.0 mg once daily, day 7		median Vss/F	288 L
C[C@](N)(Cc1ccc(O)c(O)c1)C(=O)O	static gravimetric method	supercritical CO2, 606.8 kg/m3	5 h, 333 K, pressure 15 MPa		solubility	82.6 µg/mL (≈ 391 µM)

For quick reference, copied from above:
Structure (SMILES)	test	test system	conditions	how to read	measurement	result
C[C@](N)(Cc1ccc(O)c(O)c1)C(=O)O	static gravimetric method	supercritical CO2, 606.8 kg/m3	5 h, 333 K, pressure 15 MPa		solubility	82.6 µg/mL (≈ 391 µM)
CC1=CC(c2ccccc2)=NS(=O)(=O)N1	HPLC	PVC/DOS polymer film-water	neutral form		log P	1.04 ± 0.02
